Published values from different studies.
Every numbered part comes from another study and shows a few of its results, in no order.
Sequence of UniProt Q13546 (whole entry, looked up): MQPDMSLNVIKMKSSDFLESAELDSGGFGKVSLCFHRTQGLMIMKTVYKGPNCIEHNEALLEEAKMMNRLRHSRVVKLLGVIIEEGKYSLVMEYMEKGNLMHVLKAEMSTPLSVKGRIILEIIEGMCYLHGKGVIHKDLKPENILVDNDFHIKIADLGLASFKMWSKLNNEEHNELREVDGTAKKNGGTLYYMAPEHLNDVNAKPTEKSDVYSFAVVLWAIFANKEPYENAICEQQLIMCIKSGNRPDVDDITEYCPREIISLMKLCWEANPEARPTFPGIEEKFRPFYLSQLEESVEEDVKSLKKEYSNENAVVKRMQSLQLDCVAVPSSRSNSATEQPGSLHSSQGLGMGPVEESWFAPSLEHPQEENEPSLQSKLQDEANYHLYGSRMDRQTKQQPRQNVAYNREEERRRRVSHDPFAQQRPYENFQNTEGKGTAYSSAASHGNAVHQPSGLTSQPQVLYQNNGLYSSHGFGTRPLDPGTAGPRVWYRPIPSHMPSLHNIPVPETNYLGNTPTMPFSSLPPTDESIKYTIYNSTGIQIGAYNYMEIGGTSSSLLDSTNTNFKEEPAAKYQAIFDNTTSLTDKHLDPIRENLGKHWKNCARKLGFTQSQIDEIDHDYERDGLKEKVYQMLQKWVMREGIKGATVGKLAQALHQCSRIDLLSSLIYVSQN
Sequence of UniProt Q86YV6 (whole entry, looked up): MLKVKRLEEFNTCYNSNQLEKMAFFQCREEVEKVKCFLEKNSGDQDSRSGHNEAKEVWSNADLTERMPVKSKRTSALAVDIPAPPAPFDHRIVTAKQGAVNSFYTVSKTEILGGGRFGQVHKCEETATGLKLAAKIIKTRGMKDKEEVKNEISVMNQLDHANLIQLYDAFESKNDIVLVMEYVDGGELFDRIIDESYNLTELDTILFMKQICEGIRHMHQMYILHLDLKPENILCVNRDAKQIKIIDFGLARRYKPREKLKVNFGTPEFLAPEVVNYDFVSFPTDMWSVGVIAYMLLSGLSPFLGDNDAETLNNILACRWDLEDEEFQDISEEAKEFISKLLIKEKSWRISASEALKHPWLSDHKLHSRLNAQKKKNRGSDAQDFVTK
Sequence of UniProt Q16566 (whole entry, looked up): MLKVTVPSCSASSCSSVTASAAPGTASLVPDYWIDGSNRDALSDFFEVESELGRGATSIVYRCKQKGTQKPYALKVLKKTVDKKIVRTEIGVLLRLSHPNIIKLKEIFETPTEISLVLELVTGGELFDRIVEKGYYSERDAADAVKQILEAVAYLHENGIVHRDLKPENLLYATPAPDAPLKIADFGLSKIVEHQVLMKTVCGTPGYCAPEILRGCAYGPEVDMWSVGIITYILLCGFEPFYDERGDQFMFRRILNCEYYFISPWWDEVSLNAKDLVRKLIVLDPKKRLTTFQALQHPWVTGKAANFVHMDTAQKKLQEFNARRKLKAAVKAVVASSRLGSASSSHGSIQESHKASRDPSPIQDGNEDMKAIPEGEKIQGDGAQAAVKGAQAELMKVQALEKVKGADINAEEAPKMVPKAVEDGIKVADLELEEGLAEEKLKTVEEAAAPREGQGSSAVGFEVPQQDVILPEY
Sequence of UniProt P15056 (whole entry, looked up): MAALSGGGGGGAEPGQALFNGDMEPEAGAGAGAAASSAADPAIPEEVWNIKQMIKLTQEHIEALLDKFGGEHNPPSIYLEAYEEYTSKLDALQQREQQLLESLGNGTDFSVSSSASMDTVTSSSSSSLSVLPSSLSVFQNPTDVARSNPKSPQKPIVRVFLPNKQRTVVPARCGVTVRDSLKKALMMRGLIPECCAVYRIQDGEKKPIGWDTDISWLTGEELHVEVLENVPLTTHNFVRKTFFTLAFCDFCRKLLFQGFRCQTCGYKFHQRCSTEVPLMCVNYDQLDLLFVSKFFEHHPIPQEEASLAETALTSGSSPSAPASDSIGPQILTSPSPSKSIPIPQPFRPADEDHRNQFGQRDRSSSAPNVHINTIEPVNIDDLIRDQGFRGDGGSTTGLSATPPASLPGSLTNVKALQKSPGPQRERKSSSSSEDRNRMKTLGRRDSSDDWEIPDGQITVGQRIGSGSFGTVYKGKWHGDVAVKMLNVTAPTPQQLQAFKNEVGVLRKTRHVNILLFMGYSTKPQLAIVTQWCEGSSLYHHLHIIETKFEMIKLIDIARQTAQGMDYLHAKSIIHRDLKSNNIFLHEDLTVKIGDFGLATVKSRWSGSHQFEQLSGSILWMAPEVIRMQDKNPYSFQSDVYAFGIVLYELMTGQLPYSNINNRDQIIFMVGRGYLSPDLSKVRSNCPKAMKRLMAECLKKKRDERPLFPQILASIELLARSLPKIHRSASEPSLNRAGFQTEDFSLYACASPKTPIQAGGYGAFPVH
Sequence of UniProt P52564 (whole entry, looked up): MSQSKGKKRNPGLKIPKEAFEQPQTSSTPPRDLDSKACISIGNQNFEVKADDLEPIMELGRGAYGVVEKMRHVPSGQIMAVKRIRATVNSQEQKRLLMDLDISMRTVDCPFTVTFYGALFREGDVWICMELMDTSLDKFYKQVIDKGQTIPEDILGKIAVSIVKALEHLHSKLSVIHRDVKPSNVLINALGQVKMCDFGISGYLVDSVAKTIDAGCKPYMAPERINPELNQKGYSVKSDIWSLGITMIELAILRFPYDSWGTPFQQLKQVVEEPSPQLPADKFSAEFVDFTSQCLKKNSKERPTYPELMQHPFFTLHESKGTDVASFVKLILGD
Sequence of UniProt P33981 (whole entry, looked up): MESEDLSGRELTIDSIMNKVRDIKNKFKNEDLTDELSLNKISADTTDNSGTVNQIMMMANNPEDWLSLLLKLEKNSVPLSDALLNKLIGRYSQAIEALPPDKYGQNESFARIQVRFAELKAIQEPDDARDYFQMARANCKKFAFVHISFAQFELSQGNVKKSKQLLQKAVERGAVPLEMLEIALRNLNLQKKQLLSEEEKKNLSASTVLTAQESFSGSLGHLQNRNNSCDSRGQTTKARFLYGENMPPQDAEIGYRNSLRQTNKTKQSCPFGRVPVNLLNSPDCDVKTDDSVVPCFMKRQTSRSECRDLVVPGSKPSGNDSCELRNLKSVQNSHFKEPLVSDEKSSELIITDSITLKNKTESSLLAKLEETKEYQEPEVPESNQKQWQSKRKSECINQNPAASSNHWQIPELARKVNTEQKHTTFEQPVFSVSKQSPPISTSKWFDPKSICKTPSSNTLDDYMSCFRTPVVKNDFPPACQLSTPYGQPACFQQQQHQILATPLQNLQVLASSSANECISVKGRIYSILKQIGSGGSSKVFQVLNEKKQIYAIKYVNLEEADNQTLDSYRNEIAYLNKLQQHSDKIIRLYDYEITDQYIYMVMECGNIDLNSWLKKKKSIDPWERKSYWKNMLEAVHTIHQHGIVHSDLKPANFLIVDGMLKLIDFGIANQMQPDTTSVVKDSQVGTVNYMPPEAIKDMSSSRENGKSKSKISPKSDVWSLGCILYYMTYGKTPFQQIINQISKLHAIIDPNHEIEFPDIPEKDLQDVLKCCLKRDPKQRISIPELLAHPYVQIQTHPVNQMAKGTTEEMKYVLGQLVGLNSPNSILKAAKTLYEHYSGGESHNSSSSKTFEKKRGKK
Sequence of UniProt P78368 (whole entry, looked up): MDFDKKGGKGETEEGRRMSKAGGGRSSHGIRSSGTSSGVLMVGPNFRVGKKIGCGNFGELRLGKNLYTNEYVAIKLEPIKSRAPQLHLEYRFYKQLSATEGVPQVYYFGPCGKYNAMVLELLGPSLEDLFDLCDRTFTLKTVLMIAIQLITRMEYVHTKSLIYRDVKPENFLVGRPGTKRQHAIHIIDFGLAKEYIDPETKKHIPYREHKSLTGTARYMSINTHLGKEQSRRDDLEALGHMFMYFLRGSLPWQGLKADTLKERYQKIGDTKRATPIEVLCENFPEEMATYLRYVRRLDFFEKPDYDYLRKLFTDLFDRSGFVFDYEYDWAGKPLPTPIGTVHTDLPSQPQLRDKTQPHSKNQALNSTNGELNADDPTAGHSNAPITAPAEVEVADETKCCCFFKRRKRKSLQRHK

Sample 1
SMILES: O=C(O)[C@@H]1[C@@H](Cn2nnc3ccccc3c2=O)CC[C@H]1C(=O)c1ccc(OCCC2CCOCC2)cc1
Technique: competition with immobilised ligand
Concentration: 1 µM
target | test | remaining binding [%]
Death-associated protein kinase 1 (DAPK1, Homo sapiens, UniProt P53355) | cell-free assay | 100
Casein kinase I isoform gamma-2 (CSNK1G2, Homo sapiens, UniProt P78368) | cell-free assay | 100
Myosin-IIIa (MYO3A, Homo sapiens, UniProt Q8NEV4) | binding | 93
Serine/threonine-protein kinase B-raf (BRAF, Homo sapiens, UniProt P15056) | cell-free assay | 100
Dual specificity protein kinase TTK (TTK, Homo sapiens, UniProt P33981) | cell-free assay | 89
Myosin light chain kinase family member 4 (MYLK4, Homo sapiens, UniProt Q86YV6) | cell-free assay | 100
Macrophage-stimulating protein receptor (MST1R, Homo sapiens, UniProt Q04912) | cell-free assay | 91
Serine/threonine-protein kinase WNK3 (WNK3, Homo sapiens, UniProt Q9BYP7) | cell-free assay | 100
Receptor-interacting serine/threonine-protein kinase 1 (RIPK1, Homo sapiens, UniProt Q13546) | cell-free assay | 100
Calcium/calmodulin-dependent protein kinase type IV (CAMK4, Homo sapiens, UniProt Q16566) | cell-free assay | 75
Dual specificity mitogen-activated protein kinase kinase 6 (MAP2K6, Homo sapiens, UniProt P52564) | cell-free assay | 100

Sample 2
Target: Macrophage colony-stimulating factor 1 receptor (CSF1R, Homo sapiens, UniProt P07333)
Sequence of UniProt P07333 (whole entry, looked up): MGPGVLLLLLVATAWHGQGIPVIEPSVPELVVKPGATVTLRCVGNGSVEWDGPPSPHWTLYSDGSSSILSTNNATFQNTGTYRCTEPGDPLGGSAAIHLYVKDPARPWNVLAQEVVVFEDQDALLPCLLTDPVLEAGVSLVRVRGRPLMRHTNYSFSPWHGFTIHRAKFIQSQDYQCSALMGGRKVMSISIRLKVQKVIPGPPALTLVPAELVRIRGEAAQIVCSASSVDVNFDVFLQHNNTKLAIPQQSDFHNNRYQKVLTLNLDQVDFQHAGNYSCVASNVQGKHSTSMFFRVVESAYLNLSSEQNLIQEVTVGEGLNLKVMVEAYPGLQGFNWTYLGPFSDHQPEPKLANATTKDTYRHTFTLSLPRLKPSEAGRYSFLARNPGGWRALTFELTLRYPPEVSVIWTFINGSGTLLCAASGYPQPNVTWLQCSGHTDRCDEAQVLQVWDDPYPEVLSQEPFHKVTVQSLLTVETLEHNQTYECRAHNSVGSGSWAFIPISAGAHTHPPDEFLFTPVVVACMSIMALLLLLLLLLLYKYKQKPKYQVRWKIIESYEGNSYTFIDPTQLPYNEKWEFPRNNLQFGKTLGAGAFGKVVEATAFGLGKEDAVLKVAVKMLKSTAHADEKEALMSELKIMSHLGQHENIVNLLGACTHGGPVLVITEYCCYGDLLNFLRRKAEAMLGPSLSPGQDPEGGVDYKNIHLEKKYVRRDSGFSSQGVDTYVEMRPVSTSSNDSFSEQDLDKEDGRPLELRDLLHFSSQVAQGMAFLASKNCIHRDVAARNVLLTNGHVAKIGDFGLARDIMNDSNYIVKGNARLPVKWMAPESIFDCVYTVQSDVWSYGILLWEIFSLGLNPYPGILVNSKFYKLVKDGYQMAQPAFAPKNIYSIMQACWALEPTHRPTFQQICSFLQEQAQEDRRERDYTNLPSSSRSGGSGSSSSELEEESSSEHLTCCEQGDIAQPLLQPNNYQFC
Read-out: enzyme activity
Mode: inhibitor
Concentration: 0.5 µM
Reference: control
SMILES | remaining activity
Cc1cn(-c2cc(NC(=O)c3ccc(C)c(Nc4nccc(-c5cccnc5)n4)c3)cc(C(F)(F)F)c2)cn1 | 17.5%
O=C(NC(NC(=S)Nc1ccc(F)c([N+](=O)[O-])c1)C(Cl)(Cl)Cl)C(c1ccccc1)c1ccccc1 (stereo not shown) | 96.2%
O=C1C(Cl)=C(N2C(=O)CCC2=O)C(=O)c2ccccc21 | 102%
CCN(CC)C(=O)c1ccc(Nc2nc(OCC3CCCCC3)c3[nH]cnc3n2)cc1 | 5.73%
COc1cc2ncnc(Nc3ccc(O)c(Br)c3)c2cc1OC | 95.2%
Ic1cccc(CSc2nnc(-c3ccncc3)o2)c1 | 104%
COc1cc2ncnc(Nc3cccc(Cl)c3)c2cc1OC | 98.2%
c1ccc(-c2cnc(Nc3ccc(OCCN4CCCC4)cc3)s2)cc1 | 38.4%
c1ccc(-c2[nH]ncc2-c2ccnc3ccccc23)nc1 | 95.5%
N#Cc1c(NC(=O)c2cccc3ccccc23)sc2c1CCCC2 | 97.2%
O=C(Nc1cccc(Nc2nccc(Nc3cccc(C(F)(F)F)c3)n2)c1)C1CC1 | 63.1%
N#C/C(=C\c1ccc(O)c(O)c1)C(=O)NCc1ccccc1 | 100%
CCN(CC)CCNC(=O)c1c(C)[nH]c(/C=C2\C(=O)Nc3ccc(Cl)cc32)c1C | 7.41%
O=C1c2ccccc2-c2n[nH]c3cccc1c23 | 86.7%

Sample 3
SMILES: COc1ccc(-c2c(Nc3ccccn3)[nH]c3c(C4=CCCCC4)c(-c4ccccc4)nn3c2=O)cc1
Matrix: plasma
Route: oral
Setting: single dose
test | system | conditions | plasma concentration, geometric mean [ng/mL]
 | cancer patients | 400 mg, 2 h post-dose | 698
 | cancer patients | 100 mg, 3 h post-dose | 1100
LC-MS/MS | human | 200 mg twice daily, 6 h | 1360
 | cancer patients | 400 mg, 8 h post-dose | 977
 | cancer patients | 50 mg, 24 h post-dose | 175

Single results of other studies
SMILES | test | system | conditions | quantity | result
CC(C)n1cnc(-c2ccc(F)cc2)c1-c1ncc(C(=O)Nc2ccc(N3CCN(C)CC3)cc2)[nH]1 | phase 2a clinical trial | patients with idiopathic pulmonary fibrosis | 60 mg once daily | patients with Infection TEAE | 0%

Some of these lines once more (sample 3):
test | system | conditions | plasma concentration, geometric mean [ng/mL]
 | cancer patients | 400 mg, 2 h post-dose | 698
 | cancer patients | 100 mg, 3 h post-dose | 1100
LC-MS/MS | human | 200 mg twice daily, 6 h | 1360
